Experimental data gathered from unrelated publications.
Every numbered part comes from another study and shows a few of its results, in no order. Substitutions count along the parent as printed.

Series 1
Target: CEBPD, bZIP domain (human)
Method: DHFR protein complementation
Matrix: yeast
Notes: single substitutions, most at no-binding floor
Reference: wild-type JUN-FOS pair
Direction: higher = stronger binding
Starting sequence: JUN, bZIP domain (human); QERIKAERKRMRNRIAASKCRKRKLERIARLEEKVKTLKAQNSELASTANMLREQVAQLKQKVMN; partner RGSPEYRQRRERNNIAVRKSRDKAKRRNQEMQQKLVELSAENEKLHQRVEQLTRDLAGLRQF
Substitution | binding fitness
I28L | -1.32 natural log
T37M | -1.14 natural log
N42A | -1.41 natural log
L38C | -1.48 natural log
A29C | -1.41 natural log
E54F | -1.44 natural log
K39T | -1.28 natural log
E54G | -1.42 natural log

Series 2
Target: Max-binding protein MNT, bHLH-zipper, MAX partner unstated (MNT, Homo sapiens, UniProt Q99583, residues 220-300)
Method: protein-binding microarray
Form: double-stranded DNA, one strand shown
Matrix: in vitro
Tested at: not given
Notes: k-mer, scored over probes, only values ≥0.25
Direction: higher = stronger binding
Construct (chain): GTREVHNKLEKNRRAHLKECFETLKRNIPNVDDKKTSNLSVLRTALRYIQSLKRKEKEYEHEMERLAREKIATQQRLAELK
Sequence | E-score
ACGCATTG | 0.256
GCATGTTA | 0.372
CCACATGA | 0.435
ATGTGTGA | 0.305
CCACGTGA | 0.494
GCAGGCAC | 0.289
ACGGCATG | 0.389
CGTGCATC | 0.337

Series 3
Target: TAR DNA-binding protein 43, full length, His tag (TARDBP, Homo sapiens, UniProt Q13148, residues 1-414)
Method: RNA Bind-n-Seq
Form: RNA
Matrix: in vitro
Tested at: 20 nM
Notes: 6-mer, flanks averaged, single round
Together with: 150 mM KCl
Reference: input library
Direction: higher = stronger binding
Sequence | 6-mer enrichment (R)
GGUCUU | 0.793
GCGGAU | 1.39
UAUUCG | 0.591
ACAAAU | 0.667
GAUGAA | 0.968
GACGCA | 0.913
UCCCUC | 0.594
GUAAGG | 1.75

Single results of other studies
SMILES | cell line | tested at | reference | quantity | result
CN(C)C(=O)N1CC[C@H](N=C2Nc3cc(F)ccc3N(CC(F)F)c3ccc(Cl)cc32)C1 | sample BA colorectal tumour organoid | 0.1 µM | DMSO | viability | 104%

Excerpt of the above (series 2):
Sequence | E-score
ATGTGTGA | 0.305
CCACGTGA | 0.494
GCAGGCAC | 0.289
